Assay results from different studies.
Parts stem from different laboratories: compare values within a part only. Substitutions count along the parent as printed.

Set 1
Target: Histone acetyltransferase KAT6A, winged helix 2, GST fusion (KAT6A, Homo sapiens, UniProt Q92794, residues 85-181)
Method: protein binding microarray
Molecule type: double-stranded DNA, one strand shown
Matrix: in vitro
Concentration: not given
Notes: 8-mer, flanks averaged, mean of 2 arrays, mostly near background
Relative to: not given
Reading: higher = stronger binding
Target sequence (chain): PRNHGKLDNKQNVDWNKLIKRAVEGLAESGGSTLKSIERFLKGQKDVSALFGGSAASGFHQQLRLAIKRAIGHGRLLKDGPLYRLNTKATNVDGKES
Strand	E-score
CTACATGC	0.0383
CGTCTGAA	0.044
CATCGTTC	-0.00809
AGGGAGTA	-0.164
ATTTATAC	0.164
GACACCCC	-0.2
GCCCCTAA	-0.114
GAGATCTA	-0.0865
ACGAGCGG	-0.0138
CCCGCATA	0.222

Set 2
Target: ABI1, truncated, D143A, DHFR fusion (Arabidopsis thaliana)
Method: DHFR PCA, deep sequencing
Matrix: yeast
Notes: methotrexate growth selection, single substitutions
With: (+)-ABA 1.4 µM
Relative to: wild-type fitted maximum
Reading: higher = stronger binding
Starting sequence: PYL1, truncated, DHFR fusion (Arabidopsis thaliana); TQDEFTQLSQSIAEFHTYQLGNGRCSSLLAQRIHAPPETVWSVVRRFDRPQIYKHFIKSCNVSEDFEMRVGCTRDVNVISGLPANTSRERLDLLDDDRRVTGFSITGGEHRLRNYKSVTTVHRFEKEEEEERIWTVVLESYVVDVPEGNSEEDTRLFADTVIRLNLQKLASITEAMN; partner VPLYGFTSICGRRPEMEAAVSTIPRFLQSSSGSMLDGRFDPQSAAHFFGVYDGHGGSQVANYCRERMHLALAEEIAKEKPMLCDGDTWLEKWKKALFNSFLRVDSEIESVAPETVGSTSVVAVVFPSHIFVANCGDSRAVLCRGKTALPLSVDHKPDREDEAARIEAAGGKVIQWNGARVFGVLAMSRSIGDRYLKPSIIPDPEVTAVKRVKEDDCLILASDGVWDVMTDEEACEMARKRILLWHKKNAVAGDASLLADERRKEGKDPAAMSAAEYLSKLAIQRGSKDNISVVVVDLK
Variant	relative binding score
V43R	-11.2%
R90K	38.1%
H34M	60.8%
G102R	0.937%
P83K	-1.21%
T120I	3.32%
Q10N	49.6%

Set 3
Target: Sal-like protein 4, full length isoform B (SALL4, Homo sapiens, UniProt Q9UJQ4-2, residues 1-616)
Method: universal PBM
Molecule type: double-stranded DNA, one strand shown
Matrix: in vitro
Concentration: not given
Notes: 8-mer, flanks averaged, mean of replicates
Reading: higher = stronger binding
Strand	E-score
AGGTCTTC	-0.0744
CCGAAATA	0.322
CCAGGCAC	-0.107
AGATGCAT	0.0526
CTTGCGCC	-0.236
AAAATGAT	0.347
GCGCTCCA	-0.381
AATAGCAC	-0.0499
CAGACAAG	-0.00194

Other studies, line by line
Molecule	target	assay	system	setting	how to read	endpoint	value
PhoQ, residues 284 288 289 292 302 303 SLGVVW	PhoP, residues 12 14 15 18 19 STWGI (Escherichia coli, UniProt P23836)	Sort-seq, refers to: YFP reporter	E. coli	PhoQ-PhoP variant library, with: 10 µM Mg2+	relative to: high Mg2+ state, higher = stronger signaling	fold induction	9.3

For quick reference, copied from above (set 1):
Strand	E-score
GACACCCC	-0.2
GCCCCTAA	-0.114
GAGATCTA	-0.0865
